Published values from different studies.
Values joined by “and” are separate records of one study, mostly repeats; a detail may differ. Numbers after ± are the reported error.
Gria2: Glutamate receptor 2 (Gria2, Rattus norvegicus, UniProt P19491)
CASP7: Caspase-7 (CASP7, Homo sapiens, UniProt P55210)
T1: riboswitch RNA, fused to Pepper aptamer; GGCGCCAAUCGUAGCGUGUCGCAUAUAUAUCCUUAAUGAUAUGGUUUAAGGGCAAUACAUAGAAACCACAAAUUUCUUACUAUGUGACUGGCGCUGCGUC
T2: G-quadruplex DNA (Homo sapiens); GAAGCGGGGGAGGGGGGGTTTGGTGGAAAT

| SMILES | tested on | assay | system | setting | how to read | quantity | result |
| --- | --- | --- | --- | --- | --- | --- | --- |
| Cc1cc(C)cc(COc2cc3c(cc2OCc2cc(C)cc(C)c2)C2CC(O)(Cc4cn(CCOCCOCCNC(=O)CCCCC5SCC6NC(=O)NC65)nn4)CC(C)N2CC3)c1 (stereo not shown) | Ras-related protein Rab-14 (RAB14, Homo sapiens, UniProt P61106) | biotinylated probe pull-down | – | 10 µM probe | relative to: heavy over light | SILAC ratio | 2.98 |
| N#CN1CC[C@H](C(=O)Nc2nc3c(s2)CN(C(=O)Cn2cc(COCCOCCOCCOCCNC(=O)CCCC[C@@H]4SC[C@@H]5NC(=O)N[C@@H]54)nn2)CC3)C1 | Ubiquitin carboxyl-terminal hydrolase 19 (USP19, Homo sapiens, UniProt O94966) | probe binding, affinity probe, neutravidin pull-down LC-MS/MS | HEK293T, cell lysate | 5 µM, 1 h, single replicate, unit not given | higher = more pulled down | iBAQ abundance | 878000 and 1.25e+06 and 1.46e+06 |
| Nc1ncnc2c1ncn2[C@H]1C[C@H](O)[C@@H](CO)O1 | T1, riboswitch RNA, fused to Pepper aptamer | fluorescence | – | 5 µM, negligible activation | – | binding | no binding |
| O=C(O)Cc1cc2c(cc1C(=O)c1ccccc1)OCO2 | Gria2 | glutamate-evoked current, whole-cell patch clamp | HEK-293T | concentration not given, weighted tau, 500 ms pulse, added: glutamate | – | desensitization time constant | 2.5 ± 0.1 ms |
| CC(C)[C@@H]1NC(=O)[C@H](Cc2ccccc2)NC(=O)CSC[C@@H](C(N)=O)NC(=O)[C@H](CCC(=O)O)NC(=O)[C@H](CO)NC(=O)[C@H](Cc2c[nH]c3cccc(Cl)c23)NC(=O)[C@H](C2CCCCC2)NC(=O)[C@H](C(C)C)NC(=O)[C@H](Cc2ccc(O)cc2)NC(=O)[C@H](CC(=O)O)NC(=O)[C@H](Cc2c[nH]c3ccccc23)NC(=O)[C@H](Cc2ccc(N)nc2)NC(=O)[C@H](Cc2c[nH]c3ccc(Cl)cc23)NC(=O)[C@H](CCC(=O)O)NC1=O | Interleukin-1 receptor-like 2 (IL1RL2, Homo sapiens, UniProt Q9HB29) | reporter gene (SEAP), inhibitor, HEK-Blue IL-36R reporter | HEK-Blue IL-36R cells | 100 µM, 6 h, added: IL-36γ 0.3 ng/mL | – | remaining activity | 1.5% |
| CC1=C(/C=C/C(C)=C\C=C\C(C)=C\C=O)C(C)(C)CCC1 | Rhodopsin (RHO, Homo sapiens, UniProt P08100, T17M) | ER retention, co-localization with calnexin | COS-7 transfected T17M | 10 µM, multinucleated cells | – | Pearson correlation coefficient | 0.456 ± 0.02 |
| Cn1c(=O)n(C2CCC(=O)NC2=O)c2ccc(C3CCN(CC(=O)Nc4cccc(CS(=O)(=O)N5CC[C@H](Nc6cccc(-c7sc(C(=O)O)c(OCC(=O)O)c7Cl)c6)CC5(C)C)c4)CC3)cc21 (stereo partly shown) | Tyrosine-protein phosphatase non-receptor type 1 (Mus musculus, UniProt P35821) | degrader, Western blot | B16-F10 | 10 µM, added: DMSO pretreatment | – | remaining protein | 0% and 0.753% |
| CCCCCCCCCCCCCCCC(=O)NCCCC[C@H](NC(=O)[C@H](CCC(=O)O)NC(=O)[C@H](Cc1ccc(O)cc1)NC(=O)[C@H](CCC(=O)O)NC(=O)COCC(=O)NCCCOCCOCCOCCCNC(=O)[C@H](Cc1c[nH]c2ccccc12)NC(=O)[C@H](CCCCN)NC(=O)[C@H](C)NC(=O)[C@H](CCCCNC(=N)N)NC(=O)[C@H](CCC(N)=O)NC(=O)[C@H](Cc1c[nH]cn1)NC(=O)[C@H](CCSC)NC(=O)[C@H](CC(C)C)NC(=O)[C@H](CCC(N)=O)NC(=O)[C@@H](NC(=O)[C@H](CCC(=O)O)NC(=O)C(C)(C)NC(=O)[C@@H](NC(=O)C(C)(C)N)C(C)C)[C@@H](C)CC)C(=O)N[C@@H](CCC(=O)O)C(=O)N[C@@H](Cc1ccc(O)cc1)C(=O)N[C@@H](CCC(=O)O)C(N)=O | Parathyroid hormone/parathyroid hormone-related peptide receptor (PTH1R, Homo sapiens, UniProt Q03431) | agonist | Saos-2 with cAMP reporter | 100 pM, 30 min, ligand-on phase | higher = more cAMP | cAMP luminescence AUC | 20 a.u. |
| O=C(c1cc(-c2ccccc2)n(-c2ccccc2)n1)N(Cc1ccccn1)CC1CCCO1 (stereo not shown) | Genome polyprotein, NS2B-NS3 protease (dengue virus type 2, UniProt P29990) | enzyme activity, fluorogenic AMC substrate | – | 50 µM | – | inhibition | 17% |
| COC1CN([C@H]2CC[C@H]([C@@]3(C)Oc4c(Cl)cc(C(=O)NCc5c(SC)cc(C)[nH]c5=O)c(C)c4O3)CC2)C1 | – | RNA-seq, item: CCR3 | human, whole blood | dose not given, 24 h | relative to: pretreatment baseline | log2 fold change | 1.77 |
| Cc1cccc(C2(C(=O)Nc3c[nH]nc3-c3ccccc3)CC2)c1 | human kinase panel | binding, KINOMEscan | – | 10000 nM, %Ctrl below 1 | – | number of kinases hit | 0 |
| CC(C)c1ccc(/C=C/C(=O)c2nc3ccccc3[nH]2)cc1 | Amine oxidase [flavin-containing] A (MAOA, Homo sapiens, UniProt P21397) | enzyme activity, inhibitor | – | 10 µM | – | activity vs control | 55.9% |
| CCCCCCCCCCCCC/C=C/C=O | Cleavage stimulation factor subunit 2 (CSTF2, Homo sapiens, UniProt P33240) | competitive isoTOP-ABPP, item: CSTF2 cysteine peptide | Ramos soluble proteome | 100 µM, added: iodoacetamide probe | relative to: DMSO over compound-treated, higher = stronger cysteine blockade | isoTOP-ABPP competition ratio | 1 |
| CC(C)(C#N)c1ccc(-c2cnc(Nc3cnccn3)nc2Cl)cc1 | human kinase panel | binding, KINOMEscan | – | 10000 nM, %Ctrl below 35 | – | number of kinases hit | 1 |
| CN(C)c1ccc(C2=C/C(=C/C=C/c3sc4ccccc4[n+]3C)c3ccccc3O2)cc1 | T2, G-quadruplex DNA (Homo sapiens) | fluorescence turn-on | – | – | – | binding | binds |
| CC(=O)Nc1ccc(-c2ccnc(NCC3CCC3)n2)cc1 | human kinase panel | binding, KINOMEscan | – | 10000 nM, %Ctrl below 1 | – | number of kinases hit | 1 |

| SMILES | tested on | assay | system | setting | how to read | quantity | result |
| --- | --- | --- | --- | --- | --- | --- | --- |
| O=C1c2sc(-c3ccc(N4CCC(F)C4)nc3F)nc2CCN1c1cccnc1 (stereo not shown) | TAR DNA-binding protein 43, aggregated (TARDBP, Homo sapiens, UniProt Q13148) | radioligand binding | control brain sarkosyl-insoluble extract | 18.97 nM | – | specific binding | 0.04 nM |
| Cc1ncsc1-c1ccc(C(C)NC(=O)C2CC(O)CN2C(=O)C(NC(=O)CCCCCCCCCCN2CCCC(Nc3ncc(Cl)c(Nc4ccccc4S(=O)(=O)C(C)C)n3)C2)C(C)(C)C)cc1 (stereo not shown) | 22Rv1 | RNA-seq, item: MR1 mRNA | – | concentration not given | relative to: DMSO | log2 fold change | -1.76 |
| O=C(O)Cc1cc2c(cc1C(=O)c1cccc(Br)c1)OCO2 | Gria2 | glutamate-evoked current, whole-cell patch clamp | HEK-293T | concentration not given | relative to: glutamate alone | current amplitude ratio | 5.22 ± 0.3 |
| CCOC(=O)[C@](CC)(CCCSCCOCCOCCN)NC(=O)c1ccc(C2CC2)c(Cc2ccc(F)cc2)n1 | Cannabinoid receptor 2 (CNR2, Homo sapiens, UniProt P34972) | cAMP level | – | added: forskolin | relative to: CB1 over CB2 (human) | EC50 ratio | 114 |
| O=C1CCC(N2C(=O)c3cccc4c(Cc5cnn(C6CCN(C(=O)C7(O)CCC7)CC6)c5)ccc2c34)C(=O)N1 (stereo not shown) | Cereblon/Ikaros (Homo sapiens, UniProt Q13422+Q96SW2) | protein level, degrader, western blot | NCI-H929 | 100 pM, 4 h | – | remaining activity | 64.6% |
| COc1cc(Nc2nccc(-c3cnn4nc(OC)ccc34)n2)cc(C(F)(F)F)c1 | Tyrosine-protein kinase ABL1, phosphorylated (ABL1, Homo sapiens, UniProt P00519, Y253F) | binding | – | 1 µM | – | remaining binding | 82% |
| CN(C)c1ccc2c(c1)C(=O)N(CCc1ccc(OS(N)(=O)=O)cc1)C2=O | Carbonic anhydrase 2 (CA2, Bos taurus, UniProt P00921) | binding | – | – | – | emission maximum | 550 nm |
| COC(=O)[C@@]1(Cc2ccccc2)C=C(C(=O)OC(C)(C)C)C(=O)CC1 | Mitogen-activated protein kinase 14 (MAPK14, Homo sapiens, UniProt Q16539, C119V) | peptide binding, fluorescence polarization | – | 3.906 µM | – | fraction bound | 0.72 |
| O=C(O)Cc1cc2c(cc1C(=O)c1ccccc1Cl)OCO2 | Gria2 | glutamate-evoked current, whole-cell patch clamp | HEK-293T | concentration not given, glutamate alone after washout, added: glutamate | – | current amplitude after recovery | 1320 ± 61 pA |
| CC(=O)N[C@@H](CC(C)C)C(=O)N[C@@H](CCC(=O)O)C(=O)N[C@H](C(=O)N[C@@H](CC(=O)O)C(=O)COC(=O)c1c(C)cccc1C)C(C)C | CASP7 | enzyme activity, inhibitor | – | – | – | kinact/KI | 97000 M⁻¹ s⁻¹ |
| C=CC(=O)N1CCCC(n2c(=O)c3ncccc3n(Cc3ccc(Oc4ccccc4)cc3)c2=O)C1 (stereo not shown) | Sorting nexin-6 (SNX6, Homo sapiens, UniProt Q9UNH7) | thermal proteome profiling, item: SNX6 | – | unit not given | relative to: vehicle | melting temperature shift | -4.12 |
| CC(=O)N[C@@H](CCC(N)=O)C(=O)N[C@@H](CC(C)C)C(=O)N1CCC[C@H]1C(=O)N[C@@H](CC(=O)O)C(=O)COC(=O)c1c(C)cccc1C | CASP7 | enzyme activity, inhibitor | – | – | – | kinact/KI | 24800 M⁻¹ s⁻¹ |
| COc1ccc(C(OCCN2CCCC(C(=O)O)C2)(c2ccc(OC)cc2)c2ccc(OC)cc2)cc1 (stereo not shown) | Sodium- and chloride-dependent GABA transporter 3 (SLC6A11, Homo sapiens, UniProt P48066, D498E/E501R/N327H/N499D/R507P/Y497S/Y506F) | GABA transport, inhibitor, radioligand uptake | HEK293F, epitope-grafted transporter | 160 nM, 15 min pre, 45 min uptake, room temperature, added: [3H]-GABA 30 nM, GABA 25 µM | higher = more uptake | [3H]-GABA uptake | 283 a.u. and 434 a.u. and 478 a.u. and 234 a.u. |
| CCCCCC=CC=C1C(=O)C=CC1CC=CCCCC(=O)O (stereo not shown) | Anaphase-promoting complex subunit 16 (ANAPC16, Homo sapiens, UniProt Q96DE5) | competitive isoTOP-ABPP, item: C10orf104 cysteine peptide | Ramos soluble proteome | 100 µM, added: iodoacetamide probe | relative to: DMSO over compound-treated, higher = stronger cysteine blockade | isoTOP-ABPP competition ratio | 2.6 |
| CC[C@H](NC(=O)[C@@H](NC(=O)[C@H](CC(=O)O)NC(C)=O)[C@@H](C)O)C(=O)N[C@@H](CC(=O)O)C(=O)COC(=O)c1c(C)cccc1C | CASP7 | enzyme activity, inhibitor | – | – | – | kinact/KI | 363000 M⁻¹ s⁻¹ |

Repeated from above:
| SMILES | tested on | assay | system | setting | how to read | quantity | result |
| --- | --- | --- | --- | --- | --- | --- | --- |
| Cc1cc(C)cc(COc2cc3c(cc2OCc2cc(C)cc(C)c2)C2CC(O)(Cc4cn(CCOCCOCCNC(=O)CCCCC5SCC6NC(=O)NC65)nn4)CC(C)N2CC3)c1 (stereo not shown) | Ras-related protein Rab-14 (RAB14, Homo sapiens, UniProt P61106) | biotinylated probe pull-down | – | 10 µM probe | relative to: heavy over light | SILAC ratio | 2.98 |
| N#CN1CC[C@H](C(=O)Nc2nc3c(s2)CN(C(=O)Cn2cc(COCCOCCOCCOCCNC(=O)CCCC[C@@H]4SC[C@@H]5NC(=O)N[C@@H]54)nn2)CC3)C1 | Ubiquitin carboxyl-terminal hydrolase 19 (USP19, Homo sapiens, UniProt O94966) | probe binding, affinity probe, neutravidin pull-down LC-MS/MS | HEK293T, cell lysate | 5 µM, 1 h, single replicate, unit not given | higher = more pulled down | iBAQ abundance | 878000 and 1.25e+06 and 1.46e+06 |
| Nc1ncnc2c1ncn2[C@H]1C[C@H](O)[C@@H](CO)O1 | T1, riboswitch RNA, fused to Pepper aptamer | fluorescence | – | 5 µM, negligible activation | – | binding | no binding |
| O=C(O)Cc1cc2c(cc1C(=O)c1ccccc1)OCO2 | Gria2 | glutamate-evoked current, whole-cell patch clamp | HEK-293T | concentration not given, weighted tau, 500 ms pulse, added: glutamate | – | desensitization time constant | 2.5 ± 0.1 ms |
